Results from different studies.
Each line is one published result; not all experiments were run side by side. ± marks the error that the study gave.
Ephx2: Bifunctional epoxide hydrolase 2 (Ephx2, Mus musculus, UniProt P34914)
UniProt P34914, sequence (whole entry, looked up): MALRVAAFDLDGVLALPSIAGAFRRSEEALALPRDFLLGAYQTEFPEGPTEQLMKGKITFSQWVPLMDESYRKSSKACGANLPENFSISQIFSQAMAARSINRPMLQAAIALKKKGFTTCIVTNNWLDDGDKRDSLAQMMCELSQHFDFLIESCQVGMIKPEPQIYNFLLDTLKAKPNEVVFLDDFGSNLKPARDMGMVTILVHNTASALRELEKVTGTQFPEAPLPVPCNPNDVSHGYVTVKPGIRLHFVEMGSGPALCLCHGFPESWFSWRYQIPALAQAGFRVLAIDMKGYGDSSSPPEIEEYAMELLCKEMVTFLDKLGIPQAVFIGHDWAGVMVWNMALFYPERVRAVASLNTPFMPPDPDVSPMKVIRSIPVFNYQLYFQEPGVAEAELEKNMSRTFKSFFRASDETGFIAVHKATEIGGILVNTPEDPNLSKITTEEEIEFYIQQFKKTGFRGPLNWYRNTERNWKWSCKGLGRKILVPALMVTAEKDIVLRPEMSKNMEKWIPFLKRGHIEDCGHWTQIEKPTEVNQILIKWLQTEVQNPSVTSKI
EPHX2: Bifunctional epoxide hydrolase 2 (EPHX2, Homo sapiens, UniProt P34913)
UniProt P34913, sequence (whole entry, looked up): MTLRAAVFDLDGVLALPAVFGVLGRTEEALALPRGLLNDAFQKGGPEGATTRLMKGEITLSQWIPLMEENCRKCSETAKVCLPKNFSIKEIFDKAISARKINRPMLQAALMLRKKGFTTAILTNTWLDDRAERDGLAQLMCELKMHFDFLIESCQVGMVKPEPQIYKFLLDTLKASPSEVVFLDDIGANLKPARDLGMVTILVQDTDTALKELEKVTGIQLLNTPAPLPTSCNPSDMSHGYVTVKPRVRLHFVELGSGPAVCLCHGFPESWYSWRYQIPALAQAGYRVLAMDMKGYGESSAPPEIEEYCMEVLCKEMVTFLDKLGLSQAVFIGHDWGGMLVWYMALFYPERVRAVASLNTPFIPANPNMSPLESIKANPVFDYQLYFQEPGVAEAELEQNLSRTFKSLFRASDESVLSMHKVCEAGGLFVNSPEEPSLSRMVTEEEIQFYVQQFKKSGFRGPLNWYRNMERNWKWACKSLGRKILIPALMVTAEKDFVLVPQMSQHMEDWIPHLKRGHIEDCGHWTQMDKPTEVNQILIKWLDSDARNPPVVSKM
Oprk1: Kappa-type opioid receptor (Oprk1, Mus musculus, UniProt P33534)
UniProt P33534, sequence (whole entry, looked up): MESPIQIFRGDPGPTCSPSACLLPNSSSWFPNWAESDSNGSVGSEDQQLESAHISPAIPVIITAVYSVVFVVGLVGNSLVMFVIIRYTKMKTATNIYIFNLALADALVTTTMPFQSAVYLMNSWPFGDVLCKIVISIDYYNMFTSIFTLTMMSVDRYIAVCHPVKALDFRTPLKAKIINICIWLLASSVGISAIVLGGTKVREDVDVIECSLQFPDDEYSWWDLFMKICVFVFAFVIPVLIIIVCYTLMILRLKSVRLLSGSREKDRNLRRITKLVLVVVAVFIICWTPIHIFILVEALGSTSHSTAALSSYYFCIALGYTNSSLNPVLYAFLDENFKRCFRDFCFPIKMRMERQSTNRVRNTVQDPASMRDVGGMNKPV
UniProt O55242, sequence (whole entry, looked up): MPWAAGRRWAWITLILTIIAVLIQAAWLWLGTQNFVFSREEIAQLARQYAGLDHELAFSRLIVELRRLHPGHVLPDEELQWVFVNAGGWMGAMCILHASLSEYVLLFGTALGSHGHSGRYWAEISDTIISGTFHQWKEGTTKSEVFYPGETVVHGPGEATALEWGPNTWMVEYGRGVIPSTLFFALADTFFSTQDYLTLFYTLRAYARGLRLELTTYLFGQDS
UniProt P35372, sequence (whole entry, looked up): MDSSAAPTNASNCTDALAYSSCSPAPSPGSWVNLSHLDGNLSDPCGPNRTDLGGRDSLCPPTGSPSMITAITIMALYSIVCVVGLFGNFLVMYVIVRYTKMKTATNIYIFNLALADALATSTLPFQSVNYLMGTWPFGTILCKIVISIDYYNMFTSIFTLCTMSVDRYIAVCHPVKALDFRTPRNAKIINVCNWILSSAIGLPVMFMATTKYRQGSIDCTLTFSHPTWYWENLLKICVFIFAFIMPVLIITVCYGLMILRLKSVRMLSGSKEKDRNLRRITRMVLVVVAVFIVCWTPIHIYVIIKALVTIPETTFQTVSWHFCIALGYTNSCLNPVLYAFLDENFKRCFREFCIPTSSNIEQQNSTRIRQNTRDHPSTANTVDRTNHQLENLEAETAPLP
UniProt O42275, sequence (whole entry, looked up): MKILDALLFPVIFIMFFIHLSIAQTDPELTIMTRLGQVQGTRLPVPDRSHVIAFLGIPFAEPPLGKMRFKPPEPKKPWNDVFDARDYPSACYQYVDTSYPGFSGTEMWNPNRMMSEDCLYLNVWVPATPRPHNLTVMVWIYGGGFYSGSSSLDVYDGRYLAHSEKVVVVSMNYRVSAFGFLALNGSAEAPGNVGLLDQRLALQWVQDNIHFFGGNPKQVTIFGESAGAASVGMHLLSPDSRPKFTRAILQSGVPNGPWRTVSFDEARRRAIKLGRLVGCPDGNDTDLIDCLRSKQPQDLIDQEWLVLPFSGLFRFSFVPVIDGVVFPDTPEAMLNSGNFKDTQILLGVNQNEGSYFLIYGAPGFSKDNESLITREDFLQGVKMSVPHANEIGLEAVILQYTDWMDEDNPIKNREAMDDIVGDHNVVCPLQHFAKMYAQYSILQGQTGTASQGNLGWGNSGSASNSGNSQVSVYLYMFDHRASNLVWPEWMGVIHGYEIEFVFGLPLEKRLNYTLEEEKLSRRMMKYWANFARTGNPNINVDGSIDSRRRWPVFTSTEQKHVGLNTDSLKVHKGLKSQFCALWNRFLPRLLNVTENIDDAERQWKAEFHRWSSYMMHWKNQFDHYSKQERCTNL
UniProt P32300, sequence (whole entry, looked up): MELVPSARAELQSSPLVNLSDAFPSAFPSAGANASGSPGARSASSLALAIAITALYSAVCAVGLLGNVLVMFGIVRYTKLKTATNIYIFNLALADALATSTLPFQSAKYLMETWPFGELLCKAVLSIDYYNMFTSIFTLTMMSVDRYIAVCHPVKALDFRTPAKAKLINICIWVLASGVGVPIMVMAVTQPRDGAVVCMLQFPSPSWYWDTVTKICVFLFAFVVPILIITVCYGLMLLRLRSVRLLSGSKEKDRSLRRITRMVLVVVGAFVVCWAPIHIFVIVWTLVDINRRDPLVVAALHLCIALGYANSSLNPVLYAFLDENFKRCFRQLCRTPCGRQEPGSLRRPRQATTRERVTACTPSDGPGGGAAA

SMILES = Cc1ccc(S(=O)(=O)Nc2c(N3CCC(NC(=O)Nc4ccc(OC(F)(F)F)c(F)c4)CC3)c(=O)c2=O)cc1; target or system = Ephx2; endpoint = IC50; value = 86.8 ± 6.1 nM
SMILES = Cc1cc(OCc2nnc(SC3CCCC3)n2-c2cccnc2)ccc1-c1ccc(S(C)(=O)=O)cc1; target or system = SN12C; endpoint = GI50; value = 1130 nM
SMILES = CC(C)=CCN1CC[C@]2(C)c3cc(O)ccc3C[C@H]1[C@H]2C; target or system = Sigma non-opioid intracellular receptor 1 (Sigmar1, Mus musculus, UniProt O55242); endpoint = IC50; value = 2.24 ± 0.08 nM
SMILES = Cc1ccc(C(=O)N[C@@H]2CC[C@@]3(O)[C@H]4Cc5ccc(O)c6c5[C@@]3(CCN4CC3CC3)[C@H]2O6)cc1; target or system = Delta-type opioid receptor (Oprd1, Mus musculus, UniProt P32300); mode = agonist; endpoint = EC50; value = > 10000 nM
SMILES = O=C(Nc1ccc(-c2cnc3ccccc3c2)cc1)C1CCN(Cc2ccccc2[N+](=O)[O-])CC1; target or system = EPHX2; endpoint = IC50; value = 8.4 nM
SMILES = Cc1ccccc1S(=O)(=O)Nc1c(N2CCC(NC(=O)Nc3ccc(F)c(C(F)(F)F)c3)CC2)c(=O)c1=O; target or system = EPHX2; endpoint = IC50; value = 15.6 ± 2.1 nM
SMILES = O=C(Nc1ccc(-c2cnc3ccccc3c2)cc1)C1CCN(Cc2ccc([N+](=O)[O-])cc2)CC1; target or system = Acetylcholinesterase (ache, Electrophorus electricus, UniProt O42275); endpoint = IC50; value = 2160 nM
SMILES = O=C(N[C@@H]1CC[C@@]2(O)[C@H]3Cc4ccc(O)c5c4[C@@]2(CCN3CC2CC2)[C@H]1O5)c1ccc(I)cc1; target or system = Oprk1; mode = agonist; endpoint = EC50; value = > 10000 nM
SMILES = CN1CC[C@]23c4c5ccc(O)c4O[C@H]2[C@@H](OS(=O)(=O)O)C=C[C@H]3[C@H]1C5; target or system = Mu-type opioid receptor (OPRM1, Homo sapiens, UniProt P35372); endpoint = EC50; value = 35 nM
SMILES = O=C(Nc1ccc(-c2cnc3ccccc3c2)cc1)C1CCN(Cc2cccc([N+](=O)[O-])c2)CC1; target or system = EPHX2; endpoint = IC50; value = 31.6 nM
SMILES = O=C(N[C@@H]1CC[C@@]2(O)[C@H]3Cc4ccc(O)c5c4[C@@]2(CCN3CC2CC2)[C@H]1O5)c1ccc(Br)cc1; target or system = Oprk1; mode = agonist; endpoint = EC50; value = > 10000 nM
SMILES = Cc1ccccc1S(=O)(=O)Nc1c(N2CCC(NC(=O)Nc3cc(F)cc(F)c3)CC2)c(=O)c1=O; target or system = Ephx2; endpoint = IC50; value = 2630 ± 312 nM

A few entries again:
SMILES = O=C(N[C@@H]1CC[C@@]2(O)[C@H]3Cc4ccc(O)c5c4[C@@]2(CCN3CC2CC2)[C@H]1O5)c1ccc(Br)cc1; target or system = Oprk1; mode = agonist; endpoint = EC50; value = > 10000 nM
